Results of several laboratories.
A part holds a random share of what one study measured.

Block 1
Target: Centromere-binding protein 1, full length, N-terminal tag (CBF1, Saccharomyces cerevisiae, UniProt P17106, residues 1-351)
Sequence of UniProt P17106 (whole entry, looked up): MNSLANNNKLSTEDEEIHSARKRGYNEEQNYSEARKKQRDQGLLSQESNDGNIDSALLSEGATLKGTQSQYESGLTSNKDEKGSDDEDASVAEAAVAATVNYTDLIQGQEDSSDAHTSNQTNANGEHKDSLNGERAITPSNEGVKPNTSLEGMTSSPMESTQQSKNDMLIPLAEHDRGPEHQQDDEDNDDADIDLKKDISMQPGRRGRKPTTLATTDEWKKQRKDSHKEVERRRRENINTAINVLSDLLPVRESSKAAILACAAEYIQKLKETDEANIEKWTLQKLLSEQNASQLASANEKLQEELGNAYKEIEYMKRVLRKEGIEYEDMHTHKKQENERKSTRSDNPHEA
Technique: protein-binding microarray
Form: double-stranded DNA, one strand shown
Matrix: in vitro
Concentration: 0.8 µM
Setting: whole 60-bp probe, no competitor
Direction: higher = stronger binding
| Oligonucleotide | fluorescence intensity [a.u.] |
| --- | --- |
| CTAATTATATAAATGGGCCTGATGTTCGTTAAATTCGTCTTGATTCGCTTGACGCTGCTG | 497 |
| CTATGTTATTGTCCTCACGTGAATTGAATTGAATTCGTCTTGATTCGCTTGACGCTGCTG | 6290 |
| GAAAAACAATGGCATCATGAAACGCTCATTGGATAGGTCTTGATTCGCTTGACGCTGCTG | 498 |
| GAAACAAATTAAAGCCACGTTCATATTCTTAATTAGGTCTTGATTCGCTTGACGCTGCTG | 559 |
| CTAAAGTGAAGCAATCAGTTGAGAGTGTAGCTATTCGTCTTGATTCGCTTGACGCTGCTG | 486 |
| CTATCACTTTTTTTACATGTGCTTATATTTAACTTCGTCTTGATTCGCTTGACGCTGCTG | 1000 |
| CTACTTCTATATTGTCACCTTCCATTTATGAAGTTCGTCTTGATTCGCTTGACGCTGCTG | 632 |
| TGTACGAAGCTATTTAATGTGATTATAGTAGTTAGGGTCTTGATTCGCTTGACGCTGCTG | 540 |
| GAATTAACCTTCCCAAACGTGTCCCACACCAAATAGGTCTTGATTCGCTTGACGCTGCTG | 559 |
| CTACTCGATGTGAGCCACGCGTCGGTTTTTCTTTTCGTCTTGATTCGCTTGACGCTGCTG | 546 |
| GAATGACGGAATATTGCGATCACGTGAATTTTCTAGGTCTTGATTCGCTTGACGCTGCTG | 17800 |
| CTACCATACCATCATCATCACTTTACACATACTTTCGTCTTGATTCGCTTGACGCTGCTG | 570 |
| CCTAACTACTATAATCACGAAACATAGCTTCGTACAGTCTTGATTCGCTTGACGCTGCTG | 542 |
| CTAGGTCTCTTTTTGCACGTTTTTGATGTTGCTTTCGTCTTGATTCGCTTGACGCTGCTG | 693 |
| CTAATGCGTACCGCTTCTCAGCTGTTCTTGCCGTTCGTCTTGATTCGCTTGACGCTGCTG | 527 |
| CTACCGTCCTCTACTCATGTGATTCGAACTATGTTCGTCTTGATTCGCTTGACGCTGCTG | 1280 |
| CTAAACAATGTTGACCGCGTGGACCCTCCCAATTTCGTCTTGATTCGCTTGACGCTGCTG | 537 |
| TGTACGAAGCTATAACATCACACTATAGTAGTTAGGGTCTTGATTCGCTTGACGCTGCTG | 558 |
| CTATTGATTCACCCCCTGATGTTTTTTAGGCCATTCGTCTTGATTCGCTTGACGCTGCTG | 569 |
| GAAGAAAAACAACTAGGGGTGATGCTGTTTTGCTAGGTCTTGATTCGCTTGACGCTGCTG | 531 |
| CTATCTAGCACAACCCACGTAAGAACCTTAATTTTCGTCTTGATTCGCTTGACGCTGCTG | 534 |
| TGTACGAAGCTATAGCACGGGCATATAGTAGTTAGGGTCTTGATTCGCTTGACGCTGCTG | 551 |
| CTAATGGAAAACCGTCATCAGATTTAATGGGGCTTCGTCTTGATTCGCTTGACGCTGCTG | 521 |
| CTATCAGGATTTATTTTCATGATGTATGGGTGTTTCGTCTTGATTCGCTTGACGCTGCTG | 538 |
| GAATATCCAAACCAGCATCAGGAAAAGCCTGAATAGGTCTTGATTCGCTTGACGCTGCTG | 497 |

Block 2
Target: Max dimerization protein 1, bHLH-zipper, MAX partner unstated (MXD1, Homo sapiens, UniProt Q05195, residues 56-136)
Technique: protein-binding microarray
Form: double-stranded DNA, one strand shown
Matrix: in vitro
Concentration: not given
Setting: k-mer, scored over probes, only values ≥0.25
Direction: higher = stronger binding
Residues (chain): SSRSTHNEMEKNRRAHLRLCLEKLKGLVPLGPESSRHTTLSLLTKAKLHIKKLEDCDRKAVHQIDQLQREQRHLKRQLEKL
| Oligonucleotide | E-score |
| --- | --- |
| AGAACACG | 0.388 |
| AAAACACG | 0.306 |
| AACACGCC | 0.366 |
| ACCCACGA | 0.332 |
| CGTGTCAC | 0.315 |
| GCCCACCC | 0.396 |
| ACGCATGG | 0.461 |
| GACGTGGC | 0.262 |
| AAACACAC | 0.276 |
| CGTGGACA | 0.309 |
| CTCATGCA | 0.274 |
| CGTGCAAC | 0.298 |
| CATGGCGG | 0.335 |
| CGCATTGC | 0.259 |
| CGTGTTCC | 0.369 |
| AACCCACC | 0.269 |
| CCCCCGCC | 0.286 |
| CCCATGGC | 0.259 |
| AATCATGC | 0.275 |
| AATGTGGA | 0.253 |
| CCCTACCA | 0.268 |

Block 3
Target: Sal-like protein 4, full length isoform A (SALL4, Homo sapiens, UniProt Q9UJQ4, residues 1-1053)
Sequence of UniProt Q9UJQ4 (whole entry, looked up): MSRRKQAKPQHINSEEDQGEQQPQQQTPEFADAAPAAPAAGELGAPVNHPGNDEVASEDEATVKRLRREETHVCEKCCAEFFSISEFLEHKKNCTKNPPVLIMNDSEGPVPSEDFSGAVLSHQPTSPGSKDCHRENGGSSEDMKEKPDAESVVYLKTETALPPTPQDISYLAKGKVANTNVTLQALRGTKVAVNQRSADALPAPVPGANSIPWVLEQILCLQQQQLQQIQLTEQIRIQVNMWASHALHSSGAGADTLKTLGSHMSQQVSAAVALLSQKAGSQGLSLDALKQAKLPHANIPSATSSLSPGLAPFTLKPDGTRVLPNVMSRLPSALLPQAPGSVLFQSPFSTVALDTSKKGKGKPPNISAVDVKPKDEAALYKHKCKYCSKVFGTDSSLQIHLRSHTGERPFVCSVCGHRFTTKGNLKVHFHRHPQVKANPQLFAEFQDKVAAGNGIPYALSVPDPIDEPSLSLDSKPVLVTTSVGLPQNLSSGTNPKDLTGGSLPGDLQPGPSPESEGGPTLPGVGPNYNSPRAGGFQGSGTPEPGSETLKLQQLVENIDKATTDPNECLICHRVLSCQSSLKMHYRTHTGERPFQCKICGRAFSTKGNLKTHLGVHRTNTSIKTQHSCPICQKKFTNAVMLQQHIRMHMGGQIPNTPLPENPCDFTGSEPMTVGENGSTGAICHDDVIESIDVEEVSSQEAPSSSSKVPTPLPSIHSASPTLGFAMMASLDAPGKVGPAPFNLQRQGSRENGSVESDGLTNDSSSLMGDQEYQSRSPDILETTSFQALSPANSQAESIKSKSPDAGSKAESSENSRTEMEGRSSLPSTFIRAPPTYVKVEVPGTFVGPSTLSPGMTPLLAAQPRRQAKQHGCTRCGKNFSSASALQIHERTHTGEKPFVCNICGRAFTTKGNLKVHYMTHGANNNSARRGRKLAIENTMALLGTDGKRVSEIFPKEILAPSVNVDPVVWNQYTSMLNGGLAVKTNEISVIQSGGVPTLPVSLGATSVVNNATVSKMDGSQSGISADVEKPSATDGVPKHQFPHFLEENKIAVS
Technique: universal PBM
Form: double-stranded DNA, one strand shown
Matrix: in vitro
Concentration: 600 nM
Setting: 8-mer, flanks averaged, mean of replicates
Direction: higher = stronger binding
| Oligonucleotide | E-score |
| --- | --- |
| TATCAGCA | 0.102 |
| CGTGCGAA | -0.0759 |
| GTTTCTAA | 0.155 |
| ATCCTATC | 0.151 |
| TAGGACAA | 0.208 |
| AGTGGTTC | -0.0866 |
| CGAAACCA | 0.0811 |
| AATTTTAA | 0.375 |
| AACGTAAA | 0.255 |
| AACGCGTC | -0.0853 |
| AGTTAGAG | -0.00781 |
| TGTCGAAA | 0.157 |
| CCTCAAAG | -0.116 |
| GGTGCACA | -0.168 |
| GTCATGCA | 0.0607 |
| CGTAATTC | 0.0478 |
| AGAAGCGG | -0.243 |
| AATGTTTA | 0.322 |
| CTATGGGC | -0.152 |
| CCGGATAG | -0.0378 |
| TAACTAGA | 0.32 |
| AGGGTCCA | -0.334 |
| CTCCGTTC | -0.15 |

Block 4
Target: RNA binding protein fox-1 homolog 2, RRM domain, GST-SBP tag (RBFOX2, Homo sapiens, UniProt O43251-10, residues 100-194)
Technique: RNA Bind-n-Seq
Form: RNA
Matrix: in vitro
Concentration: 365 nM
Setting: natural RNA segment, single round, ends assumed
Relative to: no-protein control
Direction: higher = stronger binding
Target sequence (chain): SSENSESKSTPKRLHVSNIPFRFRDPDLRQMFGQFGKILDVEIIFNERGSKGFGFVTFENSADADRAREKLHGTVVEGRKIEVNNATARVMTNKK
| Oligonucleotide | RBNS enrichment (R) |
| --- | --- |
| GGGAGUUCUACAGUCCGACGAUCUUUUUUAAAUAACAUGUAUUAUGGUACAAUCAAAUUGUUCACAUUACCAAAGCAAUAUUUCUUUGGGAUUCAGUUCAGUGUUUGUGGCAUCUAAUCUGAUCCUUCUUUACUGGAAUUCUCGGGUGCCAA | 0.326 |
| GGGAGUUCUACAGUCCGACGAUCGUUACCCUUUUCGUUUACUGUGUUCUGUGAAAACUUGUAAUUGGUUGAGAAUCACUGUGGGCGUCCAUUCUUAUCAACUAAAUCUCCACAGGGUUUUUGUGCUGGUGUGGUGGAAUUCUCGGGUGCCAA | 0.463 |
| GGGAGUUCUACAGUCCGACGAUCCCCUUACUCUCUACCAUUUCCUUUAUGUGGGGAAACAUUUUAAGGUAAUAAAUAGGUUACUUACCAUCAUAUGUUCAUAUAGAUGAAACUAAUUUUUGGCUUAAGUCAGAUGGAAUUCUCGGGUGCCAA | 0.347 |
| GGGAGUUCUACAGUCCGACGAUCUGUGUGUGCAGUUCAAUCCCGAGGACUGGAAUUUGGAUCCCACCACACACAUAACAAGCCACAUAUUCUGUAAAAGCCUGAGAGAUUCCAGCCCAGAGAGAUUUGAUGCUUGGAAUUCUCGGGUGCCAA | 0.64 |
| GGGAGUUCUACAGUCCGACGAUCGUCUUUGGGUCACCUGCAUUCCAUAGCAUUGUGCUUGUACUUGUGCUCACACGGUUACCUAGGGUAGGCUGGGAGCCAUUGUGGGGUGCAGGGCCUGGCUUGUACUUGGUUGGAAUUCUCGGGUGCCAA | 1.16 |
| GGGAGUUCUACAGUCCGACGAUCGUCCCCGCCCCUCUUCAGUCCUGCCCUCCCCUCCUCAGUCCUGCCCACCCCGUGCAGCCCAUGCUGAGGCUGCAGUGGUGUCGUGGGUGUUACGUGCAGGAACGUGGAGAUGGAAUUCUCGGGUGCCAA | 0.586 |
| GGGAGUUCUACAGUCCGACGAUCGCUUGGCUGUUCCACCAGAGCAGAGGGAAUCAUUGCUGGACUGGAUUUCUUCUGGAGGGAAGCACCAUGAAUUAAAGGUGCCAGAGCUCCAUGCAUGGAAAAGUGGCCUGUGGAAUUCUCGGGUGCCAA | 3.91 |
| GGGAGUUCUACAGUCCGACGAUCUGAAGAAAUCUCAAGCUCCCAAUUUUGGUUGCACUUUACGAACAUGCUCACUUCGUUAGCAUUUCUGAGCCAGAGGCUGGCUCCCUCCCGUGGGGAUCUGGGAGCUGGCAUGGAAUUCUCGGGUGCCAA | 0.382 |
| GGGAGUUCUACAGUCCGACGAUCGACUGCAGGCUCAUGAGCAGCGUCAAAGACAAUGUGGGCCGUGGCCUGAACAUCGCCCUGGUGAAUGGGGUCAGUGGUGAGCUCCUAGAAGCCAGAGCCUUUGACAUGUGUGGAAUUCUCGGGUGCCAA | 1.24 |
| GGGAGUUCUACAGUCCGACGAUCUUCCAUUUUCCAGCUAUAGAGAGAAACAAUCCAGCUGCCUGGAAACUGUUAUUAGUAUAGAAGUGGCUUAAAGAAAAGCAUCUUCAAAUACUUGACUUAGCAUAUCUUUCUGGAAUUCUCGGGUGCCAA | 0.423 |
| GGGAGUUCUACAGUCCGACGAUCAAAUUAUAUUAUAGAAUUUAAAUAACUAGCUUUCACAAUCAGUUUGUGUGUAAAAUGUCAUUUAAAGUGUUUUCAAAUGCAUUGCUCUUACAAUUUAUUUUCCUUUAACUUGGAAUUCUCGGGUGCCAA | 0.502 |
| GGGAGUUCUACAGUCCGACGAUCUGAUGGUUGCGAGUGCAGGGACACUGGACAUAUGGGCUCAGUGCUGAGAGGUGGCAGAGCUGCGCUCCUGCCCACAGUGCUAGCCCAGGAAUCCUGGGGAGGCUGAGUAGUGGAAUUCUCGGGUGCCAA | 0.684 |

A few entries again (block 2):
| Oligonucleotide | E-score |
| --- | --- |
| CATGGCGG | 0.335 |
| CGCATTGC | 0.259 |
| CGTGTTCC | 0.369 |
| AACCCACC | 0.269 |
| CCCCCGCC | 0.286 |
| CCCATGGC | 0.259 |
